Measured values gathered from unrelated publications.
Lines come from different studies, so protocols differ.
ALK: ALK tyrosine kinase receptor (ALK, Homo sapiens, UniProt Q9UM73)
ALK L1196M: ALK tyrosine kinase receptor (ALK, Homo sapiens, UniProt Q9UM73, L1196M)

Compound = COc1c(Cl)cccc1Nc1c(-c2ccncc2C#C[C@@]2(C)CCCN2C(=O)/C=C/CN(C)C)[nH]c2c1C(=O)NCC2; target = ALK; assay = cell-free assay, competition with immobilised ligand; conditions = 3 µM; remaining binding = 71%
Compound = C=CC(=O)N1CCc2ccc(-n3c(=O)ccc4cnc5ccc(-c6cnn(C)c6)cc5c43)cc21; target = ALK L1196M; assay = KINOMEscan; conditions = 1 µM; how to read = baseline: DMSO control; remaining binding = 100%
Compound = Cc1cnc2nc1Nc1cccc(c1)COC/C=C/COCc1cc(ccc1OCCN1CCOCC1)N2; target = ALK L1196M; assay = binding; conditions = 0.1 µM; remaining binding = 92%
Compound = Nc1ncc2c(n1)-c1c([nH]c3ccc(C4=CCOCC4)cc13)CCC2; target = ALK L1196M; assay = binding, competition with immobilised ligand; conditions = 1 µM; remaining binding = 100%
Compound = C=CC(=O)N1CCCC(n2c(=O)c3ncccc3n(Cc3ccc(Oc4ccccc4)cc3)c2=O)C1 (centres unmarked); target = ALK; assay = cell-free assay, competition with immobilised ligand; conditions = 1 µM; remaining binding = 42%
Compound = CNC1C[S+]2CC[S+]3CC[S+](C1)[Ru-4]321([N]=C=S)[n]2c3ccc(OC)cc3c3c4c(c5cc(F)c[n+]1c5c32)C(=O)NC4=O (centres unmarked); target = ALK; assay = KinomeScan; conditions = 0.1 µM; how to read = baseline: untreated; remaining binding = 95%
Compound = CNC(=O)C1CCN(c2cc(C)c(F)cc2NC(=O)c2ccc(-c3cc(O)ccc3C)c(C)c2)CC1; target = ALK; assay = binding, competition with immobilised ligand; conditions = 1 µM; remaining binding = 93%
Compound = CC(C)=CC1OC(C)(C)C2C=C3C(=O)C(Cl)=CC(O)C3C3C(O)C4OC4C(=O)C132 (centres unmarked); target = ALK L1196M; assay = cell-free assay, competition with immobilised ligand; conditions = 10 µM; remaining binding = 71%
